Published values from different studies.
A part holds a random share of what one study measured. “And” joins repeats or separate records; there may be more than shown.

Sample 1
Target: Maternal embryonic leucine zipper kinase (MELK, Homo sapiens, UniProt Q14680)
Chain of UniProt Q14680 (whole entry, looked up): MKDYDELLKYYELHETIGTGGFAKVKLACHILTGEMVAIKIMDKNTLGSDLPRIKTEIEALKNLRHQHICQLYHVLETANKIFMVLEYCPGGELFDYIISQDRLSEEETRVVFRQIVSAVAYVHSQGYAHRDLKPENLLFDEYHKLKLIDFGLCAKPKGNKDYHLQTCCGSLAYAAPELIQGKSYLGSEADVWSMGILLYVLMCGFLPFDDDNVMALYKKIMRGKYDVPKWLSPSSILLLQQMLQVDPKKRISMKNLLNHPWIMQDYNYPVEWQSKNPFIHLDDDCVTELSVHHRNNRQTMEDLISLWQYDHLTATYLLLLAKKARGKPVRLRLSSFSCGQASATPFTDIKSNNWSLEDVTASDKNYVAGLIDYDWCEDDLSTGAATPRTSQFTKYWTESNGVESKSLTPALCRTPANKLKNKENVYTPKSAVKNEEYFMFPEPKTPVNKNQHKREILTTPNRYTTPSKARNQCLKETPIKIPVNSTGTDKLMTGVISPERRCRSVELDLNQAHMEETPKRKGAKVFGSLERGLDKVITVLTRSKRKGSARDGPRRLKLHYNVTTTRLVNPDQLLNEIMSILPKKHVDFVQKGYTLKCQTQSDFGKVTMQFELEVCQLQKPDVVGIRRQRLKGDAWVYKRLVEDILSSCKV
Observed: enzyme activity
Action: inhibitor
Concentration: 0.5 µM
Baseline: control
Measurement: remaining activity
NC(=O)c1ccc(-c2nc(-c3ccc4c(c3)OCCO4)c(-c3ccccn3)[nH]2)cc1: 95%
O=C1NC(=O)/C(=C/c2ccc3c(c2)OC(F)(F)O3)S1: 94.4%
O=C(O)/C=C/c1cc(Br)c(Br)c(Br)c1Br: 91%
COc1cc2c(N3CCN(C(=O)Nc4ccc(OC(C)C)cc4)CC3)ncnc2cc1OCCCN1CCCCC1: 87.9%
O=C1c2ccccc2-c2nc3nnnn3nc21: 55.7%
CCN(CC)CCCCN1c2ccccc2Oc2ccc(Cl)cc21: 95.3%
c1cc(-c2cnn3cc(-c4ccc(OCCN5CCCCC5)cc4)cnc23)ccn1: 6.63%
O=C(c1ccccc1)c1ccc(N2CCOCC2)cc1O: 103%

Sample 2
Target: Ras GTPase-activating protein-binding protein 1, full length (G3BP1, Homo sapiens, UniProt Q13283)
Chain of UniProt Q13283 (whole entry, looked up): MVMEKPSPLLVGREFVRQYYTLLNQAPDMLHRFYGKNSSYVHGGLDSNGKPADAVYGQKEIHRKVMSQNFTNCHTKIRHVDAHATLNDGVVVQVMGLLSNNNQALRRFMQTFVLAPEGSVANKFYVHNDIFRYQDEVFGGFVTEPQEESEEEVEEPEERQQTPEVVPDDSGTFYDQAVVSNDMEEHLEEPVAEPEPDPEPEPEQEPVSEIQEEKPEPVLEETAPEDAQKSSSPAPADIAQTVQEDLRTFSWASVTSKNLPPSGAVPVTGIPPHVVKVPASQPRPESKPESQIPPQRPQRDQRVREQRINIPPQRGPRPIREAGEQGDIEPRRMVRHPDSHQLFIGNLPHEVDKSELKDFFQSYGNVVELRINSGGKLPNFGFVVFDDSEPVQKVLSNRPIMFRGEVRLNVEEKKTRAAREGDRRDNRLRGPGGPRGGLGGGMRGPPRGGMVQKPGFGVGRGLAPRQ
Method: RNA Bind-n-Seq
Form: RNA
Medium: in vitro
Concentration: 200 nM
Setting: whole 134-nt RNA, ends assumed
Together with: 150 mM LiCl
Baseline: input library
Direction: higher = stronger binding
Measurement: log2 enrichment
Each molecule: 7-deaza-guanosine replaces G
Constant ends, left off below: GGGAGUUCUACAGUCCGACGAUC … UGGAAUUCUCGGGUGUCAAGG
CACAGACAACAGGCACCCACACAGACACAGAGGGAAGGGGUUGGGAUGGGGACAGGGUGCACAGCAGGGCGGGGUAGGACCCCAGCCCCU: 0.227
UGUGCUACACAUCGUAUGUACCGAAUCGGGGUUUUUUUGGGGUUUUUGGGGUUUUUUUGGGGAAAGUAUUAUGUUACGCCGUUCGGAUCU: 1.74
UGUUCACAUUUUAAGGAUGACAAGUCCACUAUAUGUAACACGUAAGAAUGCUAUCCUGGCAGUAGACACAGGGCCAGAAUAAACUGGCAA: -1.6
CAUCAAAAUAGCUACAAACCAUACUAAAUUAUUCCAUUUGCAACUUAUCCCCAACAGGUAUGUUCUAAAAAUAGUUUUUUUUUGUCAUUU: 0.308
UCAAGUCCUGUGCUACACAUCGUAUGUACCGAAUCGGUUUGGGUUUGGGUUUGGAAAGUAUUAUGUUACGCCGUUCGGAUCUGCACUUCC: -0.334
CUCAAGUCCUGUGCUACACAUCGUAUGUACCGAAUCGGUUUGGUUUUUGGAGGAAAGUAUUAUGUUACGCCGUUCGGAUCUGCACUUCCA: 0.351
UUGCCACUCUAAAUUCAGAAGAGGAGAGCGACCCUCCAACCUACAAGGAUGCCUUCCCUCCACUUCCUGAGAAAGCUGCUUGCCUGGAAA: -0.952
CACAGCCAACACGCACCCACACAGACACAGAGGGAAGGGGUUGGGAUGGGGACAGGGUGCACAGCAGGGCGGGGUAGGACCCCAGCCCCU: 0.706

Sample 3
Target: Protein max, full length (MAX, Homo sapiens, UniProt P61244-2, residues 1-151)
Method: protein-binding microarray
Form: double-stranded DNA, one strand shown
Medium: in vitro
Concentration: not given
Setting: k-mer, scored over probes, only values ≥0.25
Direction: higher = stronger binding
Measurement: E-score
CCATGAGA: 0.311
CCCACGCA: 0.313
ATTGCGTG: 0.259
AACACGAT: 0.283
ATGTGAAC: 0.287
AGCTCGTG: 0.343
AGCGTGAT: 0.428
AGGCCACG: 0.337

Mixed results
Method: CellTiter-Glo
Concentration: 1 µM
Baseline: DMSO
COc1ccc2c(c1)O[C@@H](c1ccc(OC)c(OC)c1)C[C@H]2NC(=O)C1(c2ccc3c(c2)OC(F)(F)O3)CC1 (single isomer, unassigned)
viability (normal-adjacent epithelium patient-derived organoids sample F): 102% and 78.3%

CO[C@@H](C)c1c(Nc2ccc([C@H](N(C)C(=O)C3CCS(=O)(=O)CC3)C(F)(F)F)cc2)cnc2cc(Cl)nn12
viability (normal organoid sample G; human, normal-adjacent epithelium): 96.1%

A few entries again (sample 2):
CAUCAAAAUAGCUACAAACCAUACUAAAUUAUUCCAUUUGCAACUUAUCCCCAACAGGUAUGUUCUAAAAAUAGUUUUUUUUUGUCAUUU: 0.308
UCAAGUCCUGUGCUACACAUCGUAUGUACCGAAUCGGUUUGGGUUUGGGUUUGGAAAGUAUUAUGUUACGCCGUUCGGAUCUGCACUUCC: -0.334
CUCAAGUCCUGUGCUACACAUCGUAUGUACCGAAUCGGUUUGGUUUUUGGAGGAAAGUAUUAUGUUACGCCGUUCGGAUCUGCACUUCCA: 0.351
UUGCCACUCUAAAUUCAGAAGAGGAGAGCGACCCUCCAACCUACAAGGAUGCCUUCCCUCCACUUCCUGAGAAAGCUGCUUGCCUGGAAA: -0.952
